Experimental data collected from several papers.
Parts stem from different laboratories: compare values within a part only. Values joined by “and” are separate records of one study, mostly repeats; a detail may differ.
UniProt Q13555, sequence (whole entry, looked up): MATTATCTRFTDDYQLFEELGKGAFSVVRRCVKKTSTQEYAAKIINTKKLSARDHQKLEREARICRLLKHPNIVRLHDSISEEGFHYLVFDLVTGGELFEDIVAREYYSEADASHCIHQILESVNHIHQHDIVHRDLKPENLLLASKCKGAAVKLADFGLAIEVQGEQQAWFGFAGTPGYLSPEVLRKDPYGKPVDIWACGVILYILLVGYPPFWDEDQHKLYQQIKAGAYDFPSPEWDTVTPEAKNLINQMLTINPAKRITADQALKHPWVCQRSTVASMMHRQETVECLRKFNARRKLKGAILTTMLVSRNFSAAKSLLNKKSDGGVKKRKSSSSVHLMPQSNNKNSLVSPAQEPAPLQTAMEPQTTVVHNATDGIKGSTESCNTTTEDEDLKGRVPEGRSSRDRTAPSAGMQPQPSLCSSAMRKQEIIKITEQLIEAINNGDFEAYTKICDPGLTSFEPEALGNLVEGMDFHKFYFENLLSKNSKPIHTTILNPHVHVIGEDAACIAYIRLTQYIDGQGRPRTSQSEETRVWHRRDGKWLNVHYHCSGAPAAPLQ
UniProt Q15303, sequence (whole entry, looked up): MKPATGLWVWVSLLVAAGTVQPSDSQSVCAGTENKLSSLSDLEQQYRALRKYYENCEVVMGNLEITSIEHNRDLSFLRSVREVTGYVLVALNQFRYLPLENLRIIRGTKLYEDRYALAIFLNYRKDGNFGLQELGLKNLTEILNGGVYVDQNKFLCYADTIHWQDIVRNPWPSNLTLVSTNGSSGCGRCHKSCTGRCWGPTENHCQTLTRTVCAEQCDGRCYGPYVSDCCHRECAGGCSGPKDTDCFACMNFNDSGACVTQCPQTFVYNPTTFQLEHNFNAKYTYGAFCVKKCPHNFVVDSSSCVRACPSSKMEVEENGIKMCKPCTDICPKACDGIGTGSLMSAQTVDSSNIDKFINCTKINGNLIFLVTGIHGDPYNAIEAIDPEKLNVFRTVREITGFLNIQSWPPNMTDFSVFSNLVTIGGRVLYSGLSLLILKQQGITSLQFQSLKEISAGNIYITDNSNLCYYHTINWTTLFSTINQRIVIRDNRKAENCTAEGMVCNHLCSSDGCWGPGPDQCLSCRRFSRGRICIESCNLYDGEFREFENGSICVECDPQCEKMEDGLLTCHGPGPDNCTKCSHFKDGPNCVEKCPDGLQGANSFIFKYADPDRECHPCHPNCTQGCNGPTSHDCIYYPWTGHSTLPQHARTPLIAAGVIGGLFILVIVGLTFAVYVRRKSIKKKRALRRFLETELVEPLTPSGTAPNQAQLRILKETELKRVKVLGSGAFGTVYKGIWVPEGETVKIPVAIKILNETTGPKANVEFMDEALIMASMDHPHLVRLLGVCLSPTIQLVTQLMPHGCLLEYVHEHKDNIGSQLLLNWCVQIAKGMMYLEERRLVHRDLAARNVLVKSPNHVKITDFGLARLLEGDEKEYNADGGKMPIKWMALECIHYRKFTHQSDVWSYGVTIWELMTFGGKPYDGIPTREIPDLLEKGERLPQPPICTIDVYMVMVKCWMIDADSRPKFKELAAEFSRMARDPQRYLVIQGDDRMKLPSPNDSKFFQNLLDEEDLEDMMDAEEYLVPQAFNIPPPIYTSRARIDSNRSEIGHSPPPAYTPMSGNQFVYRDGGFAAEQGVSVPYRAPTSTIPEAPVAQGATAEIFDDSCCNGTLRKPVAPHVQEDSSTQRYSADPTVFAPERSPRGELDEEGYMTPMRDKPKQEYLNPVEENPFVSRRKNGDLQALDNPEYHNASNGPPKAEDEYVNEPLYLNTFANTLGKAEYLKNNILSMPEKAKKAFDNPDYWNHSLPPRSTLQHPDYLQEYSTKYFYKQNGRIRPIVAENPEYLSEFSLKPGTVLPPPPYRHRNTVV
UniProt Q9Y6E0, sequence (whole entry, looked up): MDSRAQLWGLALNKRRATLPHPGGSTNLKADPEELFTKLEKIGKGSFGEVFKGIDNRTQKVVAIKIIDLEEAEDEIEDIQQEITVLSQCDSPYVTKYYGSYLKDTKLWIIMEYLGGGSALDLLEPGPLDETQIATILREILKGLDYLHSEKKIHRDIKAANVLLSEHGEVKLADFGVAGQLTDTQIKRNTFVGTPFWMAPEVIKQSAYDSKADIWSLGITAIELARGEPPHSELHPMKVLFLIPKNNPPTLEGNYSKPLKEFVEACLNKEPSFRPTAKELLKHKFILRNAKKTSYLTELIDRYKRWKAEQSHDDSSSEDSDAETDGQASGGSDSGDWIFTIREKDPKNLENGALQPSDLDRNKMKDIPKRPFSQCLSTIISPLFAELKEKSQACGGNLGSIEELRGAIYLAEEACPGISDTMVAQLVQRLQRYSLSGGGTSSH

Block 1
Cell line: mouse MPNST tumor cells
Technique: high-content immunofluorescence imaging
Measured: nuclear SOX9
Tested at: 10 µM
Time: 12 h
Setting: mean of 2 replicates
Relative to: DMSO control
Reading: higher = more nuclear SOX9
Measurement: nuclear SOX9 intensity
Compound = CC[C@@]1(O)C(=O)OCc2c1cc1n(c2=O)Cc2cc3ccccc3nc2-1; result = 192 % of DMSO
Compound = Cc1cc(C(=O)CN2CCCC2)c(C)n1-c1ccc(F)cc1; result = 107 % of DMSO
Compound = O=[N+]([O-])O[C@@H]1CO[C@H]2[C@@H]1OC[C@@H]2O; result = 95.5 % of DMSO
Compound = c1ccc([C@@H]2C[C@H]2NC2CCNCC2)cc1; result = 104 % of DMSO and 96.6 % of DMSO
Compound = C=C(C)C1CCC(C)=CC1c1c(OC)cc(C)cc1OC (centres unmarked); result = 103 % of DMSO
Compound = Cc1cccc([C@H](C)c2c[nH]cn2)c1C; result = 91.5 % of DMSO and 95.7 % of DMSO
Compound = CC(CCc1ccccc1)NC(C)C(O)c1ccc(O)cc1 (centres unmarked); result = 145 % of DMSO
Compound = CCCN(CCC)CCc1ccc(OC)c(OCCc2ccccc2)c1; result = 148 % of DMSO
Compound = CC(C)CC(N(C)C)C1(c2ccc(Cl)cc2)CCC1 (centres unmarked); result = 106 % of DMSO
Compound = O=c1cccc2n1CC1CC2CN(CCN2CC3CC(C2)c2cccc(=O)n2C3)C1; result = 85.8 % of DMSO
Compound = O=C(NCNC(=O)NC1C(=O)NC(=O)N1CO)NC1C(=O)NC(=O)N1CO (centres unmarked); result = 99.3 % of DMSO

Block 2
Effect on: dsDNA unwinding
Technique: PicoGreen fluorescence
Matrix: annealed dsDNA substrate
Tested at: 20 µM
Measurement: effect
SMILES = O=[N+]([O-])C=Cc1ccc2c(c1)OCO2; result = 4.9%
SMILES = Oc1c(I)cc(I)c(O)c1I; result = 13.1%
SMILES = O=[N+]([O-])C(Br)(CO)CO; result = -5.09%
SMILES = CN=c1nc(-c2ccccc2)n(-c2ccccc2)s1; result = -2.4%
SMILES = Cc1nc(C#Cc2ccnc(Cl)c2)c(C)n1-c1ccc(OC(F)(F)F)cc1; result = 4.02%
SMILES = CCOC(=O)C1=C(N)Oc2ccc(Br)cc2[C@H]1[C@H](C#N)C(=O)OCC; result = 11.1% and 3.09%
SMILES = COc1cc(C(=S)N2CCOCC2)ccc1O; result = 3.2%
SMILES = COCCCOc1ccnc(C[S+]([O-])c2nc3ccccc3[nH]2)c1C (centres unmarked); result = 4.41%
SMILES = O=c1c(O)c(-c2cc(O)c(O)c(O)c2)oc2cc(O)cc(O)c12; result = 8.26%
SMILES = C[CH2][Hg][S]c1ccccc1C(=O)[O-].[Na+]; result = -0.8%
SMILES = O=C(O)[C@@H](S)[C@@H](S)C(=O)O; result = 4.25%
SMILES = N.N.[Cl][Pt][Cl]; result = -3.87%
SMILES = CCn1c(N)c(C(=O)NC)c(=O)c2ccc(C#C[C@@](C)(O)COC)nc21; result = -3.15%
SMILES = CC(C)(C)c1ccc(S(=O)(=O)/C=C/C#N)cc1; result = 6.42%
SMILES = CC(=O)OC[C@H]1O[C@@H]([S-])[C@H](OC(C)=O)[C@@H](OC(C)=O)[C@@H]1OC(C)=O.CCP(CC)CC.[Au+]; result = 1.69%
SMILES = Cc1ccc(S(=O)(=O)/C=C/C#N)cc1; result = 4.89%
SMILES = O=C1C=CC(=O)C2=C1C1c3ccccc3C2c2ccccc21; result = 6.47%
SMILES = O=C(/C=C/c1ccc2ccccc2n1)c1ccncc1; result = 1.29%
SMILES = O=c1[nH]nc(Sc2ncc([N+](=O)[O-])s2)n1-c1ccc2c(c1)OCCO2; result = 8.75%
SMILES = O=C1C(c2ccccn2)=[N+]([O-])c2ccccc21; result = 6.52%
SMILES = O=C(Nc1cccnc1)N1CCC(Cc2cccc(Oc3ccc(C(F)(F)F)cn3)c2)CC1; result = 5.67%
SMILES = O=Nc1ccc(O)c2ncccc12; result = 0.14%
SMILES = CCN(CC)c1ccc(C(=C2C=CC(=[N+](CC)CC)C=C2)c2ccccc2)cc1; result = 11.8%
SMILES = Oc1ccc2c(c1)CC[C@H](c1ccccc1)[C@@H]2c1ccc(OCCN2CCCC2)cc1; result = 15.5%
SMILES = O=C(Nc1ccc2c(O)cc(S(=O)(=O)[O-])cc2c1)Nc1ccc2c(O)cc(S(=O)(=O)[O-])cc2c1.[Na+].[Na+]; result = 16.4%

Block 3
Structure (SMILES): N/C(=N\[N+](=O)[O-])N/N=C\c1ccc(-c2cccc([N+](=O)[O-])c2)o1
Effect on: enzyme activity
Mode: inhibitor
Tested at: 0.5 µM
Relative to: control
Measurement: remaining activity
target = MAP3K11 (Homo sapiens, UniProt Q16584); result = 99.4%
target = CSNK1G1 (Homo sapiens, UniProt Q9HCP0); result = 96.4%
target = EPHA1 (Homo sapiens, UniProt P21709); result = 88.9%
target = CAMK2G (Homo sapiens, UniProt Q13555); result = 82.2%
target = STK24 (Homo sapiens, UniProt Q9Y6E0); result = 87.7%
target = DAPK3 (Homo sapiens, UniProt O43293); result = 103%
target = PRKD2 (Homo sapiens, UniProt Q9BZL6); result = 94.3%
target = MKNK1 (Homo sapiens, UniProt Q9BUB5); result = 97.4%
target = ERBB4 (Homo sapiens, UniProt Q15303); result = 103%
target = PBK (Homo sapiens, UniProt Q96KB5); result = 111%
target = STK26 (Homo sapiens, UniProt Q9P289); result = 99.5%
target = Protein kinase C beta type, isoform beta-II (PRKCB, Homo sapiens, UniProt P05771); result = 100%

Block 4
Target: DNA polymerase theta, ATPase domain (POLQ, Homo sapiens, UniProt O75417)
UniProt O75417, sequence (whole entry, unmodified, looked up): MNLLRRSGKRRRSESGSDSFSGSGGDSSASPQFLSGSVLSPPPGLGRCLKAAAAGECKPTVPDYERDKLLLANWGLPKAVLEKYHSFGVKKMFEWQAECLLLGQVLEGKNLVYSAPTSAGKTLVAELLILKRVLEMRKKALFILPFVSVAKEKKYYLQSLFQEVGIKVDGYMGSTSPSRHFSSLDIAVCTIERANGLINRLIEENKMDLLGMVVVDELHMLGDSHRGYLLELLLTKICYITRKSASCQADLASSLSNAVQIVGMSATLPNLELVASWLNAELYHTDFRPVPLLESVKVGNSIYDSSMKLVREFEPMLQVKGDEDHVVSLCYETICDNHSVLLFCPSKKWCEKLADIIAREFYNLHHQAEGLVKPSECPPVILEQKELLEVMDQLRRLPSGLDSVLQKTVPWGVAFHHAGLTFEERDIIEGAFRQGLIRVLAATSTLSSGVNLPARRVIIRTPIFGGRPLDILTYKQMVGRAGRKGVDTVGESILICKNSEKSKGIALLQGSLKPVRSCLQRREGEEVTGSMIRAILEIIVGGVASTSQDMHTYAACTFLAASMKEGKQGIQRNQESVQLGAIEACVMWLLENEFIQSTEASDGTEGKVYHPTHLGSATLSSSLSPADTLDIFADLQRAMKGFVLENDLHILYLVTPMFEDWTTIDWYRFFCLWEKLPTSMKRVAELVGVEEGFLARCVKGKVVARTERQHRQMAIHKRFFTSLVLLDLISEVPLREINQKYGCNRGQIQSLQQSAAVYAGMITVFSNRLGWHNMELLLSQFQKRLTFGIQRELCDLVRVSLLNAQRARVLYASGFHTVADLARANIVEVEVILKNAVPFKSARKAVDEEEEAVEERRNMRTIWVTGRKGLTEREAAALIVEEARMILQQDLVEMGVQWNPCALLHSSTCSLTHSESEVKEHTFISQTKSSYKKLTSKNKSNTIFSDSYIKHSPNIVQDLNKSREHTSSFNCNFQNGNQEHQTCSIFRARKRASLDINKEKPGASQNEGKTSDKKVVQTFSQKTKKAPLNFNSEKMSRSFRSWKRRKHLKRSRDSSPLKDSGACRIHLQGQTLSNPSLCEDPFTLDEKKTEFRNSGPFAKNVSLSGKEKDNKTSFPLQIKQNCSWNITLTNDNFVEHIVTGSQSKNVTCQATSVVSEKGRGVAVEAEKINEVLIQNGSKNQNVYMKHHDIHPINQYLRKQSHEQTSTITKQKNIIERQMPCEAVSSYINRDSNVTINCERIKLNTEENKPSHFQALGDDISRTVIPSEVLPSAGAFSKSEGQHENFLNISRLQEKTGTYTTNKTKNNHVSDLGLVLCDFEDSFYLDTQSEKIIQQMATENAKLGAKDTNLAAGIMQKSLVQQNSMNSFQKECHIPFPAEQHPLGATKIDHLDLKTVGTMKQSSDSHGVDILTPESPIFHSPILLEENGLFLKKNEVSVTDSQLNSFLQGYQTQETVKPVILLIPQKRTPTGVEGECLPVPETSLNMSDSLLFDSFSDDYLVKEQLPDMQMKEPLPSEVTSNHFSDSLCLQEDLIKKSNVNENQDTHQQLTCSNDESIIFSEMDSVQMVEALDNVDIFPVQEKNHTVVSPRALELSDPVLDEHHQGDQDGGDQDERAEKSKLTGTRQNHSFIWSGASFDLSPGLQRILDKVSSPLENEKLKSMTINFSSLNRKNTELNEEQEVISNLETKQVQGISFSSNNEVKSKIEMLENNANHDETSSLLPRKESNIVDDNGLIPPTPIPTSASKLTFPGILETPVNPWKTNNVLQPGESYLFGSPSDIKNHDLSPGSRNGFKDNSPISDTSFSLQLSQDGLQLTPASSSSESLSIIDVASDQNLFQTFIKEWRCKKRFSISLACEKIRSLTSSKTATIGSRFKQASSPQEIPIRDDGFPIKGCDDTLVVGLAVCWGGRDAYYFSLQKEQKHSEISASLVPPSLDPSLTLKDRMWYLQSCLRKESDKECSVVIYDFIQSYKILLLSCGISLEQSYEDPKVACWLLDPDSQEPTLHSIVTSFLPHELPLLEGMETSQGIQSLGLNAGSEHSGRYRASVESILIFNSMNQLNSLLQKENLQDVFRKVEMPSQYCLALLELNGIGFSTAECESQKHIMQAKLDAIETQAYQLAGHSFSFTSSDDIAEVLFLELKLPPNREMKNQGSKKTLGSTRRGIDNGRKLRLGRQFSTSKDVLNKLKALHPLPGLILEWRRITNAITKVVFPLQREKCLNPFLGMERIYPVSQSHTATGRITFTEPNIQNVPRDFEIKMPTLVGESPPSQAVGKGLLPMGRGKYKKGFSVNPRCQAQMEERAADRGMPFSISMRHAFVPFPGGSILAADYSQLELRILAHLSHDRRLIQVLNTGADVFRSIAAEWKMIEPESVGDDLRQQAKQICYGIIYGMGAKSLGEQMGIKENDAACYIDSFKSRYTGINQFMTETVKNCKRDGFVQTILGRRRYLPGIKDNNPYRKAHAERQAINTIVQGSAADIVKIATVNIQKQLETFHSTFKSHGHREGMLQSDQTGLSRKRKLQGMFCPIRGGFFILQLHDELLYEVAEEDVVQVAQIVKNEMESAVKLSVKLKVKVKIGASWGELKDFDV
Effect on: enzyme activity
Mode: inhibitor
Tested at: 77 µM
Relative to: untreated
Measurement: remaining activity
SMILES = CCOC(=O)c1cncn1[C@H](C)c1ccccc1; result = 94.8% and 96.3%
SMILES = NC(=O)COc1c(F)cc(SCCNS(=O)(=O)c2ccccc2)cc1F; result = 97%
SMILES = C[C@H]1C(=O)O[C@@H]2CCN3CC=C(COC(=O)[C@](C)(O)[C@]1(C)O)[C@H]23; result = 103%
SMILES = C[C@]12CCC(=O)C(O)=C1CC[C@@H]1[C@@H]2CC[C@]2(C)C(=O)CC[C@@H]12; result = 102%
SMILES = O=C1CCCN1CC#CCN1CCCC1; result = 102%
SMILES = C/C=C1\C[C@@H](C)[C@](O)(CO)C(=O)OCC2=CCN3CC[C@@H](OC1=O)[C@@H]23; result = 95.3%
SMILES = c1ccc2c(c1)OCC(C1=NCCN1)O2 (centres unmarked); result = 105%
SMILES = CCCN1CCC[C@@H]2Cc3nc(N)ncc3C[C@H]21; result = 101%
